Results pooled from the literature.
Numbers after ± are the reported error. ≈ marks a conversion by molar mass, not a printed value.
Organism: Pseudomonas aeruginosa

Structure (SMILES)	test	test system	setting	scale	measurement	value
NCC1OC(OC2C(N)CC(N)C(OC3OC(CO)C(O)C(N)C3O)C2OCCCCCCCCCCCCn2cc(CNc3nc(NCc4cn(CCCCCCCCCCCCOC5C(OC6OC(CN)C(O)CC6N)C(N)CC(N)C5OC5OC(CO)C(O)C(N)C5O)nn4)nc(NCc4cn(CCCCCCCCCCCCOC5C(OC6OC(CN)C(O)CC6N)C(N)CC(N)C5OC5OC(CO)C(O)C(N)C5O)nn4)n3)nn2)C(N)CC1O (stereo not shown)	–	PAO1, CAMHB	8 µg/mL, added: rifampicin	–	fold potentiation of rifampicin	128 fold
CC(=O)[O-].O.O.O.O.[Mn+2].[O-]c1ccc(Br)cc1C=NCCN1CCOCC1	–	–	20 µL of 100 µM per disc	–	inhibition zone diameter	15 mm
CC[C@@H](C)[C@@H](NC(=O)[C@@H](C)NC(=O)[C@@H](CCCCN)NC(=O)[C@@H](CC(C)C)NC(=O)[C@@H](C)NC(=O)[C@H](NC(=O)[C@@H](CCCCN)NC(=O)[C@@H](CC(C)C)NC(=O)[C@H](NC(=O)[C@@H](CCCCN)NC(=O)[C@@H](CCCCN)NC(=O)[C@@H](CCCCN)NC(=O)[C@@H](C)NC(=O)[C@@H](CCCCN)NC(=O)[C@@H](CO)NC(=O)[C@@H](Cc1ccccc1)NC(=O)[C@H](NC(=O)[C@@H](CCCCN)NC(=O)[C@@H](CC(C)C)NC(=O)[C@@H](Cc1ccccc1)NC(=O)[C@@H](CO)NC(=O)[C@@H](CCCCN)NC(=O)[C@@H](Cc1c[nH]c2ccccc12)NC(=O)[C@@H](CCCCN)NC(C)=O)[C@H](C)O)C(C)C)[C@H](C)O)C(=O)N[C@H](CO)C(=O)N[C@H](CCCCN)C(N)=O	–	six isolates	–	reference: HC50 over geometric mean MIC	therapeutic index	159
CCCCCCC1N=C(N)N=C(N)N1c1ccc(Cl)cc1.Cl (racemic)	broth microdilution	PAO1	without thymidine	–	MIC90	> 128 µM
CC[C@H](C)[C@H](NC(=O)[C@H](Cc1c[nH]cn1)NC(=O)[C@H](CCCCNC(=O)[C@@H](NC(=O)[C@H](CCCCN)NC(=O)CSC[C@H](NC(=O)[C@H](Cc1ccccc1)NC(=O)[C@H](CCCCNC(=O)[C@H](CC(C)C)NC(=O)[C@@H]1CCCN1C(=O)[C@H](CCCCN)NC(C)=O)NC(=O)[C@H](CC(C)C)NC(=O)[C@@H]1CCCN1C(=O)[C@H](CCCCN)NC(C)=O)C(N)=O)[C@@H](C)CC)NC(=O)[C@@H](NC(=O)[C@H](CCCCN)NC(=O)CSC[C@H](NC(=O)[C@H](Cc1ccccc1)NC(=O)[C@H](CCCCNC(=O)[C@H](CC(C)C)NC(=O)[C@@H]1CCCN1C(=O)[C@H](CCCCN)NC(C)=O)NC(=O)[C@H](CC(C)C)NC(=O)[C@@H]1CCCN1C(=O)[C@H](CCCCN)NC(C)=O)C(N)=O)[C@@H](C)CC)C(N)=O	–	PAO1	50 µM, 24 h	–	biofilm dispersal	increased
Cc1cc([N+](=O)[O-])ccc1NC(=O)CSc1nc2ccccc2c(=O)n1-c1ccc(S(N)(=O)=O)cc1	microbial killing	ATCC27 ATCC27853	24 h	–	MBC	4.5 µg/mL (≈ 8.56 µM)
Cc1c2c(cc3oc(=O)cc(-c4ccc(O)cc4)c13)C(=O)c1cccc(O)c1C2=O	–	MTCC 2453	100 µg/disc	–	zone of inhibition	< 8 mm
COc1ccc(-c2ccn(CC[C@](C)(C(=O)NO)S(C)(=O)=O)c(=O)c2)c(F)c1	–	PA-1955, mice acute septicaemia model	subcutaneous	–	ED50	55.9 mg/kg
O=C1CC(c2ccc(O)cc2)Oc2cc(O)cc([O][Ga+][O]c3cc(O)cc4c3C(=O)CC(c3ccc(O)cc3)O4)c21 (stereo not shown)	–	–	40 µM, day three, 48 h-old biofilm	–	remaining biofilm	10%
CC(=O)N[C@H](CCCCN)C(=O)N[C@H](CC(C)C)C(=O)N[C@H](CCCCN)C(=O)N[C@H](CO)C(=O)N[C@H](CC(C)C)C(=O)N[C@H](CC(C)C)C(=O)N[C@H](CCCCN)C(=O)N[C@@H](C(=O)N[C@H](CC(C)C)C(=O)N[C@H](CO)C(=O)N[C@H](CCCCN)C(=O)N[C@H](C)C(=O)N[C@H](CCCCN)C(=O)N[C@H](CCCCN)C(=O)N[C@H](CCCCN)C(=O)N[C@H](CCCCN)C(=O)N[C@H](CC(C)C)C(=O)N[C@H](CCCCN)C(=O)N[C@@H](C(=O)N[C@H](CC(C)C)C(=O)N[C@H](CC(C)C)C(=O)N[C@H](CCCCN)C(=O)N[C@H](C)C(=O)N[C@H](CC(C)C)C(=O)N[C@H](CO)C(=O)N[C@H](CCCCN)C(N)=O)[C@H](C)O)[C@H](C)O	–	six isolates	–	reference: HC50 over geometric mean MIC	therapeutic index	895
CC[C@@H](C)[C@@H](NC(=O)[C@@H](Cc1c[nH]c2ccccc12)NC(=O)[C@@H](CCCNC(=N)N)NC(=O)[C@H](N)CCCNC(=N)N)C(=O)N[C@H](CCCNC(=N)N)C(=O)N[C@@H](C(=O)N[C@H](C)C(=O)N[C@@H](C(=O)N[C@@H](C(=O)N[C@H](CC(C)C)C(=O)N[C@H](CCCNC(=N)N)C(=O)N[C@@H](C(N)=O)C(C)C)[C@H](C)CC)C(C)C)C(C)C	–	PAO1, Galleria mellonella larvae	proleg injection, 20 µg per larva, 24 h post infection, 37 °C, dosed 1 h after infection	–	survival	50 ± 8%
CC[C@@H](C)[C@@H](NC(=O)[C@@H](C)NC(=O)[C@@H](CCCNC(=N)N)NC(=O)[C@@H](Cc1c[nH]c2ccccc12)NC(=O)[C@@H](CCC(N)=O)NC(=O)[C@H](N)C(C)C)C(=O)N[C@H](CCCNC(=N)N)C(=O)N[C@@H](C(=O)N[C@H](CCCNC(=N)N)C(=O)N[C@@H](C(=O)N[C@@H](C(=O)N[C@H](CCCNC(=N)N)C(N)=O)[C@H](C)CC)C(C)C)C(C)C	WST-8	PAO1	32 µg/mL, 24 h, 37 °C, preformed biofilm	–	biofilm dispersal	100%
C=C(CO)C(=O)O[C@H]1CC(=C)[C@@H]2C[C@H](O)[C@](O)(CCl)[C@@H]2[C@H]2OC(=O)C(=C)C12 (stereo partly shown)	–	–	concentration not given	–	inhibition zone	8 ± 1.3 mm
Clc1ccc(CSc2nnc(C34CC5CC(CC(C5)C3)C4)n2-c2ccccc2)cc1	–	IFO 3448	200 µg/disc, 24 h, 37 °C	–	inhibition zone diameter	< 10 mm
CC(=O)N[C@H](CCCCN)C(=O)N[C@H](CC(C)C)C(=O)N[C@H](CCCCN)C(=O)N[C@H](CO)C(=O)N[C@H](CC(C)C)C(=O)N[C@H](CC(C)C)C(=O)N[C@H](CCCCN)C(=O)N[C@@H](C(=O)N[C@H](CC(C)C)C(=O)N[C@H](CO)C(=O)N[C@H](CCCCN)C(=O)N[C@H](C)C(=O)N[C@H](CCCCN)C(=O)N[C@H](CCCCN)C(=O)N[C@H](CCCCN)C(=O)N[C@H](CC(C)C)C(=O)N[C@H](CC(C)C)C(=O)N[C@H](CCCCN)C(=O)N[C@@H](C(=O)N[C@H](C)C(=O)N[C@H](CC(C)C)C(=O)N[C@H](CCCCN)C(=O)N[C@H](C)C(=O)N[C@H](CC(C)C)C(=O)N[C@H](CO)C(=O)N[C@H](CCCCN)C(N)=O)[C@H](C)O)[C@H](C)O	–	six isolates	–	–	MIC geometric mean	1 µM (≈ 2.92 µg/mL)
Oc1cc(C(F)(F)F)ccc1-c1nc2c(C(F)(F)F)cc(C(F)(F)F)cc2[nH]1	colistin potentiator	TRPA 162, colistin-resistant	5 µM	–	MIC of colistin	0.25 µg/mL
COc1c2c(cc3oc(=O)cc(-c4ccc(Cl)cc4)c13)C(=O)c1cc(C)cc(O)c1C2=O	–	MTCC 2453	100 µg/disc	–	zone of inhibition	8 mm
O=c1c(Cl)c(Cl)cnn1Cc1ccccc1Cl	bacterial growth	wild type, agar	50 µM	–	colony size	no effect
CCCCCCCCCCCCCC(=O)N[C@@H](Cc1ccc2ccccc2c1)C(=O)N[C@@H](CCCCN)C(=O)N[C@@H](CCCCN)C(=O)N[C@@H](CCCCN)C(=O)N[C@@H](CCCCN)C(N)=O	–	ATCC 27853	–	–	MBC	128 µg/mL (≈ 137 µM)
CCOC(=O)c1cnc(N/N=C/c2c(-c3ccc(Cl)cc3)nc3ncccn23)s1	microbial growth, well diffusion	ATCC27853	100 µg/mL	–	inhibition zone	12 mm
CC(C)CCCCC(=O)N[C@@H](CCN)C(=O)N[C@H](C(=O)N[C@@H](CCN)C(=O)N[C@H]1CCNC(=O)[C@H]([C@@H](C)O)NC(=O)[C@H](CCN)NC(=O)[C@H](CCN)NC(=O)[C@H](CC(C)C)NC(=O)[C@@H](Cc2ccccc2)NC(=O)[C@H](CCN)NC1=O)[C@@H](C)O	biofilm formation	PAO1	24 h, 37 °C	–	MBIC	8 µg/mL
FC(F)(F)c1cc(CSc2nnc(C34CC5CC(CC(C5)C3)C4)n2-c2ccccc2)cc(C(F)(F)F)c1	two-fold dilution	IFO 3448	24 h, 36 °C	–	MIC	8 µg/mL (≈ 14.9 µM)
CCCCCCCCCCCCCC(=O)NCCCC[C@H](N)C(=O)N[C@@H](CCCCN)C(=O)N[C@@H](CCCCN)C(=O)N[C@@H](CCCCN)C(=O)N[C@@H](CCCCN)C(=O)N[C@@H](CCCCN)C(N)=O	–	ATCC 27853	–	–	MBC	128 µg/mL (≈ 128 µM)
CN(C)CCn1nc(C23CC4CC(CC(C4)C2)C3)n(C)c1=S	–	IFO 3448	200 µg/disc, 24 h, 37 °C	–	inhibition zone diameter	< 10 mm
CC(=NNC(=N)N)c1nnn(-c2ccc(C#CC3(O)CCCCC3)cc2)c1C	microbial killing	ATCC10145	–	–	MBC	62.5 µg/mL (≈ 165 µM)

Excerpt of the above:
Structure (SMILES)	test	test system	setting	scale	measurement	value
CC[C@@H](C)[C@@H](NC(=O)[C@@H](Cc1c[nH]c2ccccc12)NC(=O)[C@@H](CCCNC(=N)N)NC(=O)[C@H](N)CCCNC(=N)N)C(=O)N[C@H](CCCNC(=N)N)C(=O)N[C@@H](C(=O)N[C@H](C)C(=O)N[C@@H](C(=O)N[C@@H](C(=O)N[C@H](CC(C)C)C(=O)N[C@H](CCCNC(=N)N)C(=O)N[C@@H](C(N)=O)C(C)C)[C@H](C)CC)C(C)C)C(C)C	–	PAO1, Galleria mellonella larvae	proleg injection, 20 µg per larva, 24 h post infection, 37 °C, dosed 1 h after infection	–	survival	50 ± 8%
CC(C)CCCCC(=O)N[C@@H](CCN)C(=O)N[C@H](C(=O)N[C@@H](CCN)C(=O)N[C@H]1CCNC(=O)[C@H]([C@@H](C)O)NC(=O)[C@H](CCN)NC(=O)[C@H](CCN)NC(=O)[C@H](CC(C)C)NC(=O)[C@@H](Cc2ccccc2)NC(=O)[C@H](CCN)NC1=O)[C@@H](C)O	biofilm formation	PAO1	24 h, 37 °C	–	MBIC	8 µg/mL
CCCCCCC1N=C(N)N=C(N)N1c1ccc(Cl)cc1.Cl (racemic)	broth microdilution	PAO1	without thymidine	–	MIC90	> 128 µM
O=c1c(Cl)c(Cl)cnn1Cc1ccccc1Cl	bacterial growth	wild type, agar	50 µM	–	colony size	no effect
